Measured values from different studies.
Numbered parts are unrelated; each lists some results of a single study. Substitutions count along the parent as printed.

Study 1 — target: CCND2, cyclin fold, Cln2 fusion (human); method: yeast growth competition, sequencing; medium: yeast; setting: strong parent motif; baseline: not given; reading: higher = stronger binding
Starting sequence: INSM1 docking peptide (human); PKAIRKLHFEDEV
`PKAFRKLHFEDEV [I4F]` — result for “normalised enrichment score”: 0.309.
For `PKAIRKLHFESEV [D11S]`, “normalised enrichment score” read 1.64.
For `PKAIRKLHFEDMV [E12M]`, “normalised enrichment score” read 2.19.
`PKAIRKLHFEDNV [E12N]` — result for “normalised enrichment score”: 2.03.
`PKAIRKLHSEDEV [F9S]`: “normalised enrichment score” 0.0832.
Under “normalised enrichment score”, `PKAIRKLTFEDEV [H8T]` is recorded as 4.08.
Under “normalised enrichment score”, `PKRIRKLHFEDEV [A3R]` is recorded as 0.385.
Under “normalised enrichment score”, `PKAIRKLWFEDEV [H8W]` is recorded as 1.19.

Study 2 — method: RNA Bind-n-Seq; molecule type: RNA; medium: in vitro; tested at: 200 nM; setting: whole 134-nt RNA, ends assumed; together with: 150 mM LiCl; baseline: input library; reading: higher = stronger binding; all molecules: 7-deaza-guanosine replaces G
Target: Fragile X messenger ribonucleoprotein 1, C-terminal low-complexity region (Fmr1, Mus musculus, UniProt P35922)
`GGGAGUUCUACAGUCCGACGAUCAAGUCCUGUGCUACACAUCGUAUGUACCGAAUCGGUUUUUUUGGUUUUUGGAAAGGAAAGUAUUAUGUUACGCCGUUCGGAUCUGCACUUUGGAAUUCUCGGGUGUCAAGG` has a log2 enrichment of -1.95.
`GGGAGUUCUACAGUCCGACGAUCGCAGGAAGUAAAAACAAACGGAAAUGCUUCGGAUAGUGGCAGGGGUGGGGGUUGCUAAGGAAAGGGUGGGAUGGGAGUGGGUAAAGAGUUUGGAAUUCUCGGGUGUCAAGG` has a log2 enrichment of 1.28.
With `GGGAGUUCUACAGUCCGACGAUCUAGGGUUCAGGAUAAGUUUGAGGUGCUGAAUUACACAAGCAUUCCUAUCUUUCUCCCGGAAGUCACCAUUGGAGCUCAUCAGACUGACCGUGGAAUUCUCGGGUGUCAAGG` the log2 enrichment was -0.946.
For `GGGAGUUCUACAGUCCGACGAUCCUGUGCUACACAUCGUAUGUACCGAAUCGGGUUUUUUUGGGUUUUUUUGGGAAAAAAAGGGAAAGUAUUAUGUUACGCCGUUCGGAUCUGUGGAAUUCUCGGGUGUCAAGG`, the log2 enrichment was -0.901.
`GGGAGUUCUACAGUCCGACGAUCUUGAUGCCCCAGAUGUGGAUGUUCAUGGCCCAGACUGGCACCUGAAGAUGCCUAAGAUGAAAAUGCCCAAGUUCAGCAUGCCUGGCUUCAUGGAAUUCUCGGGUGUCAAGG` has a log2 enrichment of -1.42.
For `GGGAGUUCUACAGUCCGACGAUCUCCUGUGCUACACAUCGUAUGUACCGAAUCGGAAAAAAGGAAAAAAGGGGAAAAAAGGGAAAGUAUUAUGUUACGCCGUUCGGAUCUGCAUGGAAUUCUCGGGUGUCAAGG`, the log2 enrichment was -0.763.
The log2 enrichment of `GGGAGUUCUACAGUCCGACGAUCACCAUGCAGGUGGGGAUCUUUGGGAAGUGGGGCAAGGGGGGGAUAGGGAGGGGGGUAACACUUUGGGAACAGGUGGUCCCAGGUCGUUUCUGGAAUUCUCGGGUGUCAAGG` is reported as 1.18.

Study 3 — method: protein-binding microarray; molecule type: double-stranded DNA, one strand shown; medium: in vitro; tested at: 2200 nM top; setting: 60-bp whole probe; together with: salmon DNA 0.4 mg/ml; baseline: random background probes; reading: higher = stronger binding; shared flanks, not repeated: GCCTAGCAC … GTCTTGATTCGCTTGACGCTGCTG
Target: Interferon regulatory factor 7, full length, phosphomimetic (IRF7, Homo sapiens, UniProt Q92985, residues 1-503, S471D/S472D/S475D/S476D/S477D/S483D/S484D/S487D)
Construct (chain): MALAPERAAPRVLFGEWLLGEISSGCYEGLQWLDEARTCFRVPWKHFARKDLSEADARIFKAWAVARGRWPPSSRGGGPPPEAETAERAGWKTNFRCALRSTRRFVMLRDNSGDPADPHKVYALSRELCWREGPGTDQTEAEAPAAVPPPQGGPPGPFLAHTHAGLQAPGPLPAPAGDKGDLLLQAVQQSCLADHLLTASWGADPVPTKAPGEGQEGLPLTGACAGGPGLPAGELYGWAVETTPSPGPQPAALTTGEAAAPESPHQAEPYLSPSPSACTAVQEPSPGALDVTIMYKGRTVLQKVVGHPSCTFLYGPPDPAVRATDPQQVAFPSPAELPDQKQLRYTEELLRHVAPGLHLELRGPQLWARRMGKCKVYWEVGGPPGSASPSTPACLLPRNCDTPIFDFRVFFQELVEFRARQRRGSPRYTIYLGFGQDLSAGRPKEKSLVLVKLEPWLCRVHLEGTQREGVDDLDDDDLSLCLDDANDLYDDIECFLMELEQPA
For `TTCGGACTGGGACTGGGTTAGTGCTAG`, “fitted relative affinity” read -0.655 z-score.
`TTAGGACTGGACTTGCGGTTAGTGCTA` — result for “fitted relative affinity”: -0.163 z-score.
Under “fitted relative affinity”, `GACGGGCTCCTTATCCTGACGTGCTAG` is recorded as 0.0132 z-score.
Under “fitted relative affinity”, `TTTTAAAATGGACACTGTACAGTGCTA` is recorded as -0.778 z-score.
`GACGGTTTGGGTTCCGGGACGTGCTAG`: “fitted relative affinity” 0.77 z-score.
For `TTAGATTTCAGAATCGATTAGTGCTAG`, “fitted relative affinity” read 0.672 z-score.
Under “fitted relative affinity”, `TCAAACATCCCAATGGCACTGTGCTAG` is recorded as 0.299 z-score.
`GAATATATGTATATATGTGTGTGCTAG`: “fitted relative affinity” 0.548 z-score.
`TCAGATTTCGGGACTGGATTAGTGCTA` — result for “fitted relative affinity”: 1.42 z-score.

Further values, each from its own experiment
The fold induction of `PhoQ, residues 284 288 289 292 302 303 TNASYF` is reported as 1.12 (PhoP, residues 12 14 15 18 19 NIMAP (Escherichia coli, UniProt P23836); Sort-seq, measured: YFP reporter; E. coli; PhoQ-PhoP variant library, together with: 10 µM Mg2+; baseline: high Mg2+ state, higher = stronger signaling).

A few entries again (study 2):
For `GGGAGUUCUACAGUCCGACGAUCCUGUGCUACACAUCGUAUGUACCGAAUCGGGUUUUUUUGGGUUUUUUUGGGAAAAAAAGGGAAAGUAUUAUGUUACGCCGUUCGGAUCUGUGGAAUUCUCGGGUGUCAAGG`, the log2 enrichment was -0.901.
`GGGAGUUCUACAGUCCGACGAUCUUGAUGCCCCAGAUGUGGAUGUUCAUGGCCCAGACUGGCACCUGAAGAUGCCUAAGAUGAAAAUGCCCAAGUUCAGCAUGCCUGGCUUCAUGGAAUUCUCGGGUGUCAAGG` has a log2 enrichment of -1.42.
For `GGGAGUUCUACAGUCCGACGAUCUCCUGUGCUACACAUCGUAUGUACCGAAUCGGAAAAAAGGAAAAAAGGGGAAAAAAGGGAAAGUAUUAUGUUACGCCGUUCGGAUCUGCAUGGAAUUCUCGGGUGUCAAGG`, the log2 enrichment was -0.763.
